# Experimental data from different studies.
# Each numbered part is a random draw from the data of one study; scales do not carry over between parts. Substitutions count along the parent as printed.

# Set 1 — target: XBP1, bZIP domain (human); method: DHFR protein complementation; matrix: yeast; relative to: wild-type JUN-FOS pair; direction: higher = stronger binding
# Notes: single substitutions, most at no-binding floor
# Starting sequence: JUN, bZIP domain (human); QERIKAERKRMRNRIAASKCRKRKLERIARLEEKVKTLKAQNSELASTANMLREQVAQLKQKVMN; partner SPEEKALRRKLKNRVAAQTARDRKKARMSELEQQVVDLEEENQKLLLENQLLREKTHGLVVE
Change,binding fitness
I28G,-1.38 natural log
K36V,-1.04 natural log
R53M,-1.47 natural log
V56S,-1.18 natural log

# Set 2 — target: CCNA1, cyclin fold, Cln2 fusion (human); method: yeast growth competition, sequencing; matrix: yeast; notes: weak parent motif; relative to: not given; direction: higher = stronger binding
# Starting sequence: E2F1 docking peptide (human); PPVKRRLDLETDH
Change,normalised enrichment score
PPVKRWLDLETDH [R6W],0.437
PPVKRRLDLDTDH [E10D],0.922
PPVKRRLDLETNH [D12N],0.325
PPVKQRLDLETDH [R5Q],0.404
SPVKRRLDLETDH [P1S],0.125
PPVKRRADLETDH [L7A],0.216
PPWKRRLDLETDH [V3W],0.401
PPVKRTLDLETDH [R6T],0.556

# Set 3 — method: protein-binding microarray; form: double-stranded DNA, one strand shown; matrix: in vitro; tested at: 2200 nM top; notes: 60-bp whole probe; with: salmon DNA 0.4 mg/ml; relative to: random background probes; direction: higher = stronger binding; shared flanks, not repeated: GCCTAGCAC … GTCTTGATTCGCTTGACGCTGCTG
# Target: Interferon regulatory factor 7, full length, phosphomimetic (IRF7, Homo sapiens, UniProt Q92985, residues 1-503, S471D/S472D/S475D/S476D/S477D/S483D/S484D/S487D)
# UniProt Q92985, sequence (whole entry, unmodified, looked up): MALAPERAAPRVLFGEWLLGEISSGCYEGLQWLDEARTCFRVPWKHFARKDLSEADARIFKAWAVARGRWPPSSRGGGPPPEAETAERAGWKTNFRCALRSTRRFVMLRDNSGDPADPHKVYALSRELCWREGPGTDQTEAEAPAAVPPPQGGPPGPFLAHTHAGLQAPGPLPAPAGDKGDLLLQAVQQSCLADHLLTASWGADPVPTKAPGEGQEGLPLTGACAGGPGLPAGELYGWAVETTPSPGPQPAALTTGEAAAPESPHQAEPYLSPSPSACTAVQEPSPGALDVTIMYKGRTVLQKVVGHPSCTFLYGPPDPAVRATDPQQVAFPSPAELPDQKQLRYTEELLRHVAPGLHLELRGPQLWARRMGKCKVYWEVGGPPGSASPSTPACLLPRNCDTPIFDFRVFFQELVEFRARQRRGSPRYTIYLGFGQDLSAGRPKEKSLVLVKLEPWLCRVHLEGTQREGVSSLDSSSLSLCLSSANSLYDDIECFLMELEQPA
Strand,fitted relative affinity [z-score]
CTAGATTTCAGTCTCGATTAGTGCTAG,1.03
GACGGTTGCGACTATCGGGACGTGCTA,-0.129
TTAGGTATCGGGGTTCGGTTAGTGCTA,0.524
GACGGACTCGGGACTGGGGACGTGCTA,-0.726
CACCCACTCTTTCCTCACCATGTGCTA,1.98
GTCGGTTTCGGACTGGGGACGTGCTAG,4.94
TTAGATTTCAGTCTCGATTCGTGCTAG,1.89

# Mixed results
Substance,target,assay,test system,conditions,scale,measurement,value
"PhoQ, residues 284 288 289 292 302 303 SSYNSA","PhoP, residues 12 14 15 18 19 AWHSL (Escherichia coli, UniProt P23836)","Sort-seq, refers to: YFP reporter",E. coli,"PhoQ-PhoP variant library, with: 10 µM Mg2+","relative to: high Mg2+ state, higher = stronger signaling",fold induction,1.57

# For quick reference, copied from above (mixed results):
Substance,target,assay,test system,conditions,scale,measurement,value
"PhoQ, residues 284 288 289 292 302 303 SSYNSA","PhoP, residues 12 14 15 18 19 AWHSL (Escherichia coli, UniProt P23836)","Sort-seq, refers to: YFP reporter",E. coli,"PhoQ-PhoP variant library, with: 10 µM Mg2+","relative to: high Mg2+ state, higher = stronger signaling",fold induction,1.57
